Results from different studies.
Lines come from different studies, so protocols differ. “And” joins repeats or separate records; there may be more than shown. ± gives the spread as reported.

Structure (SMILES) | assay | test system | conditions | how to read | quantity | result
CSCC[C@H](NC(=O)CNC(=O)[C@H](CCCCN)NC(=O)[C@H](CC(C)C)NC(=O)[C@@H]1CCCN1C(=O)[C@H](CO)NC(=O)[C@H](Cc1c[nH]cn1)NC(=O)[C@H](Cc1c[nH]c2ccccc12)NC(=O)[C@H](CCCNC(=N)N)NC(=O)[C@H](CC(C)C)NC(=O)[C@H](CCCNC(=N)N)NC(=O)[C@H](Cc1c[nH]c2ccccc12)NC(=O)[C@H](CS)NC(=O)CCCCCNC(=O)CN1CCN(CC(=O)O)CCN(CC(=O)O)CCN(CC(=O)O)CC1)C(=O)O [copper-64 labelled] | – | C57BL/6J mice, B16-F10 tumour | intravenous, 1.85 MBq, 30 h | relative to: tumour over muscle | tumour-to-muscle ratio | 7.02
NC1CCN(C(=O)Oc2ccc(C3CCCC4(C3)OOC3(O4)C4CC5CC(C4)CC3C5)cc2)CC1 (racemic) | – | male Sprague-Dawley rat, plasma | intravenous, 10 mg/kg | – | Vd | 34.4 L/kg
CCCCCCCCCCCCCCCC(=O)N[C@@H](CCC(=O)NCCOCCOCCC(=O)NCCOCCOCCC(=O)NCCCC[C@H](NC(=O)[C@H](CC(=O)O)NC(=O)[C@H](CC(C)C)NC(=O)[C@H](Cc1ccc(O)cc1)NC(=O)[C@H](CCCCN)NC(=O)[C@H](CO)NC(=O)[C@H](Cc1ccc(O)cc1)NC(=O)[C@H](CC(=O)O)NC(=O)[C@H](CO)NC(=O)[C@@H](NC(=O)[C@H](Cc1ccccc1)NC(=O)[C@@H](NC(=O)CNC(=O)[C@H](CCC(N)=O)NC(=O)[C@@H](CO)NC(=O)[C@@H](N)Cc1c[nH]cn1)[C@@H](C)O)[C@@H](C)O)C(=O)N[C@@H](CCCNC(=N)N)C(=O)N[C@@H](CCCNC(=N)N)C(=O)N[C@@H](C)C(=O)N[C@@H](CCC(N)=O)C(=O)N[C@@H](CC(=O)O)C(=O)N[C@@H](Cc1ccccc1)C(=O)N[C@H](C(=O)N[C@@H](CCC(N)=O)C(=O)N[C@@H](Cc1c[nH]c2ccccc12)C(=O)N[C@@H](CC(C)C)C(=O)N[C@@H](CC(C)C)C(=O)N[C@@H](CC(N)=O)C(=O)N[C@H](C(=O)NCC(=O)NCC(=O)N1CCC[C@H]1C(=O)N[C@@H](CO)C(=O)N[C@@H](CO)C(=O)NCC(=O)N[C@@H](C)C(=O)N1CCC[C@H]1C(=O)N1CCC[C@H]1C(=O)N1CCC[C@H]1C(=O)N[C@@H](CO)C(N)=O)[C@@H](C)O)C(C)C)C(=O)O | – | rhesus monkey, male | subcutaneous, 60 µg/kg once daily, 28 days | – | creatinine | 46.6 ± 8.4 µmol/L
O=C(c1cc(Cc2n[nH]c(=O)c3ccccc23)ccc1F)N1CC(CNC2CC2)C1 | – | Wistar Han rat, female, blood | oral, 60 mg/kg daily, 4 weeks | – | haemoglobin | 9.9 ± 0.8 g/dL
CC[C@H](C)[C@H](NC(=O)[C@H](CCCCN)NC(=O)CNC(=O)[C@H](CC(C)C)NC(=O)[C@H](Cc1ccccc1)NC(=O)[C@H](CCCCN)NC(=O)[C@H](CO)NC(=O)[C@H](Cc1ccccc1)NC(=O)[C@H](Cc1c[nH]c2ccccc12)NC(=O)[C@H](CCC(N)=O)NC(=O)[C@@H](NC(=O)[C@H](Cc1ccccc1)NC(=O)CCCCCNC(=O)CN1CCN(CC(=O)O)CCN(CC(=O)O)CCN(CC(=O)O)CC1)C(C)C)C(=O)N[C@@H](CCC(=O)O)C(=O)N1CCC[C@H]1C(=O)N[C@@H](CC(=O)O)C(=O)N[C@H](C(=O)N[C@@H](CO)C(=O)N[C@@H](CCC(N)=O)C(=O)N[C@H](C(=O)N[C@@H](CCC(N)=O)C(=O)N[C@@H](CC(=O)O)C(=O)N1CCC[C@H]1C(=O)N[C@@H](CC(N)=O)C(=O)N[C@@H](CC(=O)O)C(=O)N[C@@H](CCC(N)=O)C(=O)N[C@@H](Cc1ccc(O)cc1)C(=O)N[C@@H](CCC(=O)O)C(=O)N1CCC[C@H]1C(=O)N[C@@H](Cc1ccccc1)C(=O)O)C(C)C)C(C)C [copper-64 labelled] | – | C57BL/6 male mouse, tumour-naive, brain | 1 h | – | tissue uptake | 0.31 ± 0.02 %ID/g
CC(C)C[C@H](NC(=O)CNC(=O)[C@@H](NC(=O)[C@H](CS)NC(=O)[C@H](Cc1ccccc1)NC(=O)[C@H](CO)NC(=O)[C@H](CC(=O)O)NC(=O)[C@@H](NC(=O)[C@@H]1CCCN1C(=O)CNC(=O)[C@@H]1CCCN1C(=O)CNC(=O)[C@H](CCCNC(=N)N)NC(=O)[C@H](CCCNC(=N)N)NC(=O)[C@H](CCCNC(=N)N)NC(=O)[C@H](CCC(N)=O)NC(=O)[C@H](CCCNC(=N)N)NC(=O)[C@H](CCCNC(=N)N)NC(=O)[C@H](CCCCN)NC(=O)[C@H](CCCCN)NC(=O)[C@H](CCCNC(=N)N)NC(=O)CN)C(C)C)[C@@H](C)O)C(=O)N[C@@H](CC(C)C)C(=O)N[C@@H](Cc1ccccc1)C(=O)N[C@@H](CS)C(=O)N[C@@H](CS)C(=O)N[C@H](C(=O)NCC(=O)O)C(C)C | chemical stability | mouse, serum | 24 h | – | compound remaining | 90%
CN[C@H]1CCN(C(=O)c2c(C)cc(C(F)(F)F)nc2-c2ccnc3cc(CN4C(=O)C5C(C4=O)C5(C)C)sc23)C1 (stereo partly drawn) | – | CT26 tumour-bearing mouse, blood | dose not given | – | blood monocyte count | decreased
C=Cc1c(C)c2cc3nc(c(CC(=O)[O-])c4[n-]c(cc5nc(cc1[n-]2)C(C)=C5CC)c(C)c4C(=O)[O-])C(CCC(=O)[O-])C3C.[Cu+2].[Na+].[Na+].[Na+] (stereo not drawn) | – | Wistar rat, male | oral, 1000 mg/kg daily, 28 days | – | serum creatinine | 0.37 ± 0.05 mg/dL
CCN(CC)CCOc1ccc(-c2nnn(Cc3ccc(OC)cc3)c2N)cc1 | metabolic stability | mouse, liver microsomes | – | – | half-life | 84 min
CC(=O)NCCCC[C@@H]1NC(=O)[C@H](Cc2c[nH]c3c(C)cccc23)NC(=O)[C@H]([C@@H](C)O)NC(=O)[C@H](CC(N)=O)NC(=O)[C@@H](NC(C)=O)C(C)(C)SSC(C)(C)[C@@H](C(=O)N[C@@H](Cc2ccc(OCCN)cc2)C(=O)N[C@@H](Cc2ccc3ccccc3c2)C(=O)NC2(C(=O)N[C@@H](CCC(=O)O)C(=O)N[C@@H](CC(N)=O)C(=O)N[C@@H](Cc3cccnc3)C(=O)N(C)CC(N)=O)CCOCC2)NC1=O | – | rat, blood | 0.013 µM, 2 h | – | blood to plasma ratio | 0.69 ± 0.07
O=C1NC2(CC2)COc2ncc(F)cc2[C@H]2COCCN2c2ccn3ncc1c3n2 | – | Sprague-Dawley rat, female, serum | oral, 10 mg/kg/day, 4 weeks daily, end of recovery period | – | creatinine | 30.4 ± 2.3 µmol/L
CSCC[C@H](N)C(=O)N[C@@H](C)C(=O)N[C@@H](Cc1c[nH]c2ccccc12)C(=O)N[C@@H](Cc1c[nH]cn1)C(=O)N[C@@H](CC(=O)O)C(=O)N[C@@H](CC(=O)O)C(=O)N[C@@H](CCC(=O)O)C(=O)N[C@@H](CCC(=O)O)C(=O)N[C@@H](Cc1ccccc1)C(=O)N[C@@H](C)C(=O)N[C@@H](CCCNC(=N)N)C(=O)N[C@@H](CCCNC(=N)N)C(=O)N[C@@H](CCCNC(=N)N)C(=O)N[C@@H](CCCNC(=N)N)C(=O)NCCCCCC(=O)NCCCCC(NC(=O)CCCCCNC(=O)[C@H](CCCNC(=N)N)NC(=O)[C@H](CCCNC(=N)N)NC(=O)[C@H](CCCNC(=N)N)NC(=O)[C@H](CCCNC(=N)N)NC(=O)[C@H](C)NC(=O)[C@H](Cc1ccccc1)NC(=O)[C@H](CCC(=O)O)NC(=O)[C@H](CCC(=O)O)NC(=O)[C@H](CC(=O)O)NC(=O)[C@H](CC(=O)O)NC(=O)[C@H](Cc1c[nH]cn1)NC(=O)[C@H](Cc1c[nH]c2ccccc12)NC(=O)[C@H](C)NC(=O)[C@@H](N)CCSC)C(=O)NCCCCC(NC(=O)C(CCCCNC(=O)CCCCCNC(=O)[C@H](CCCNC(=N)N)NC(=O)[C@H](CCCNC(=N)N)NC(=O)[C@H](CCCNC(=N)N)NC(=O)[C@H](CCCNC(=N)N)NC(=O)[C@H](C)NC(=O)[C@H](Cc1ccccc1)NC(=O)[C@H](CCC(=O)O)NC(=O)[C@H](CCC(=O)O)NC(=O)[C@H](CC(=O)O)NC(=O)[C@H](CC(=O)O)NC(=O)[C@H](Cc1c[nH]cn1)NC(=O)[C@H](Cc1c[nH]c2ccccc12)NC(=O)[C@H](C)NC(=O)[C@@H](N)CCSC)NC(=O)CCCCCNC(=O)[C@H](CCCNC(=N)N)NC(=O)[C@H](CCCNC(=N)N)NC(=O)[C@H](CCCNC(=N)N)NC(=O)[C@H](CCCNC(=N)N)NC(=O)[C@H](C)NC(=O)[C@H](Cc1ccccc1)NC(=O)[C@H](CCC(=O)O)NC(=O)[C@H](CCC(=O)O)NC(=O)[C@H](CC(=O)O)NC(=O)[C@H](CC(=O)O)NC(=O)[C@H](Cc1c[nH]cn1)NC(=O)[C@H](Cc1c[nH]c2ccccc12)NC(=O)[C@H](C)NC(=O)[C@@H](N)CCSC)C(N)=O (stereo partly drawn) | – | C57BL/6 mouse female, uterus | dose not given, 3 h | relative to: total | mean tissue distribution | 1.35%
CC(C)[C@H](NC(=O)[C@H](Cc1c[nH]c2ccccc12)NC(=O)[C@H](CCCNC(=N)N)NC(=O)[C@H](CCCNC(=N)N)NC(=O)[C@@H](NC(=O)[C@@H](NC(=O)[C@H](CCCNC(=N)N)NC(=O)[C@@H](NC(=O)[C@@H](NC(=O)[C@H](CCCNC(=N)N)NC(=O)[C@H](CCCNC(=N)N)NC(=O)[C@@H](NC(=O)[C@H](Cc1c[nH]c2ccccc12)NC(=O)[C@H](CCCNC(=N)N)NC(=O)[C@H](CCCNC(=N)N)NC(=O)[C@@H](NC(=O)[C@H](CCCNC(=N)N)NC(=O)[C@H](CCCNC(=N)N)NC(=O)[C@@H](NC(=O)[C@H](Cc1c[nH]c2ccccc12)NC(=O)[C@H](CCCNC(=N)N)NC(=O)[C@@H](N)CCCNC(=N)N)C(C)C)C(C)C)C(C)C)C(C)C)C(C)C)C(C)C)C(C)C)C(=O)N[C@@H](CCCNC(=N)N)C(=O)N[C@@H](CCCNC(=N)N)C(=O)O | item: spleen | mice | intravenous, 30 mg/kg | relative to: body weight | organ weight | 0.87%
COc1cnc2cccc(N3CCc4c(cc(Cn5ccnc5)cc4-c4cn(C)nc4C(F)(F)F)C3=O)c2c1 | – | BALB/c nude mice, MV4-11 xenograft | intraperitoneal, 100 mg/kg, day 24 | – | body weight | 23.2 g and 22.4 g and 22.6 g and 23 g and 23.1 g
C#Cc1c(F)ccc2cc(O)cc(-c3ncc4c(N5CC6CCC(C5)N6C(=O)OC(C)OC(C)=O)nc(OC[C@@]56CCCN5C[C@H](F)C6)nc4c3F)c12 (stereo partly drawn) | chemical stability | simulated intestinal fluid | 1 µM, 30 min | – | compound remaining | 106%
CSCC[C@@H]1NC(=O)[C@H](C(C)C)NC(=O)[C@H](CCCNC(=N)N)NC(=O)CNC(=O)[C@@H]2CCCN2C(=O)[C@@H](NC(=O)CNC(=O)[C@H](CO)NC(=O)CNC(=O)[C@H](CO)NC(=S)Nc2ccc(C[C@H]3CN(CC(=O)O)CCN(CC(=O)O)CCN3CC(=O)O)cc2)CSSC[C@@H](C(N)=O)NC(=O)[C@@H]2CCCN2C(=O)CNC(=O)[C@H](CCC(=O)O)NC(=O)[C@H](CC(=O)O)NC(=O)[C@H](CC(=O)O)NC(=O)CNC(=O)[C@H](CC(C)C)NC(=O)[C@H](Cc2c[nH]cn2)NC(=O)[C@H](CC(C)C)NC(=O)CNC(=O)[C@H](Cc2c[nH]cn2)NC1=O [copper-64 labelled] | dynamic PET | CD rat, myocardial infarction, left ventricular blood pool | intravenous, 18.5 MBq | – | blood elimination half-life | 26.2 ± 4.6 min
N#[11C]c1ccc(-c2csc(NN=C3CCCC3)n2)cc1 | – | C57BL/6 mice, male, thymus | intravenous, 3 MBq, 60 min | – | radioactivity uptake | 0.6 ± 0.36 %ID/g
CCCCCCCCCCCCCC(=O)N[C@@H](CCCNC(=N)N)C(=O)N[C@@H](Cc1c[nH]c2ccccc12)C(=O)N[C@@H](CCCCN)C(=O)N[C@H](C(=O)N[C@@H](Cc1ccccc1)C(=O)N[C@@H](CCCCN)C(=O)N[C@@H](CCCCN)C(=O)N[C@H](C(=O)N[C@@H](CCC(=O)O)C(=O)N[C@@H](CCCCN)C(=O)N[C@H](C(=O)NCC(=O)N[C@@H](CCC(N)=O)C(=O)N[C@@H](CC(N)=O)C(=O)N[C@H](C(=O)N[C@@H](CCCNC(=N)N)C(=O)N[C@@H](CC(=O)O)C(=O)NCC(=O)N[C@H](C(=O)N[C@H](C(=O)N[C@@H](CCCCN)C(=O)N[C@@H](C)C(=O)NCC(=O)N1CCC[C@H]1C(=O)N[C@@H](C)C(=O)N[C@H](C(=O)N[C@@H](C)C(=O)N[C@H](C(=O)N[C@H](C(=O)NCC(=O)N[C@@H](CCC(N)=O)C(=O)N[C@@H](C)C(=O)N[C@@H](C)C(=O)N[C@H](C(=O)N[C@H](C(N)=O)[C@@H](C)CC)[C@@H](C)O)C(C)C)C(C)C)C(C)C)C(C)C)[C@@H](C)CC)[C@@H](C)CC)C(C)C)[C@@H](C)CC)[C@@H](C)CC | – | mouse erythrocytes | 50 µM, 1 h, 37 °C | – | hemolysis | ~60%
